Results pooled from the literature.
Numbered parts are unrelated; each lists some results of a single study.

Block 1
Target: Prothrombin, mature alpha-thrombin (F2, Homo sapiens, UniProt P00734)
Technique: aptamer microarray, sandwich
Molecule type: DNA with 2'F-ANA
Matrix: in vitro
Concentration: 200 nM
Setting: whole 15-mer aptamer, many near background
With: Cy3 exosite-II aptamer, 400 nM
Reading: higher = stronger binding
Quantity: mean fluorescence intensity
Strand: GGTTGGTGTGGTTGG
Modification = 2'F-ANA at 3 5 9 11 13 14; result = 52.5 a.u.
Modification = 2'F-ANA at 3 4 7 8 10 11 12; result = 383 a.u.
Modification = 2'F-ANA at 5 7 8 11 12 13; result = 118 a.u.
Modification = 2'F-ANA at 2 5 7 8 10 13 14 15; result = 47.3 a.u.
Modification = 2'F-ANA at 1 3 9 10 13 14 15; result = 118 a.u.
Modification = 2'F-ANA at 1 3 6 7 8 10 11 13 14 15; result = 63.8 a.u.
Modification = 2'F-ANA at 2 3 6 9 10 11 12; result = 369 a.u.
Modification = 2'F-ANA at 1 2 3 4 5 6 7 10 11 14 15; result = 74.4 a.u.
Modification = 2'F-ANA at 2 4 6 7 8 9 10 11 12 13; result = 86.3 a.u.
Modification = 2'F-ANA at 1 4 5 10 11 14; result = 41.9 a.u.
Modification = 2'F-ANA at 2 4 5 6 9 11 14; result = 49 a.u.
Modification = 2'F-ANA at 1 5 8 9 10 12 15; result = 51.7 a.u.
Modification = 2'F-ANA at 1 2 5 7 8 10; result = 47.6 a.u.
Modification = 2'F-ANA at 3 4 5 7 9 11 12 14; result = 58.4 a.u.
Modification = 2'F-ANA at 3 6 7 9 10 12 13 15; result = 446 a.u.
Modification = 2'F-ANA at 3 5 6 7 8 10 12 14; result = 54.8 a.u.
Modification = 2'F-ANA at 1 2 3 4 5 7 8 10 11 12 13 14 15; result = 52.6 a.u.
Modification = 2'F-ANA at 2 5 6 7 11 13 14; result = 44.4 a.u.
Modification = 2'F-ANA at 1 3 6 7 9 10 11 13 14 15; result = 76.2 a.u.
Modification = 2'F-ANA at 6 8 9 12 14 15; result = 213 a.u.
Modification = 2'F-ANA at 2 4 6 7 8 10 14; result = 58.9 a.u.
Modification = 2'F-ANA at 4 6 8 9 10 11 12 13 15; result = 75.8 a.u.
Modification = 2'F-ANA at 3 5 6 7 8 11 12 13 15; result = 293 a.u.
Modification = 2'F-ANA at 3 8 11 12 15; result = 1370 a.u.

Block 2
Target: Sal-like protein 4, full length isoform B (SALL4, Homo sapiens, UniProt Q9UJQ4-2, residues 1-616)
Technique: universal PBM
Molecule type: double-stranded DNA, one strand shown
Matrix: in vitro
Concentration: not given
Setting: 8-mer, flanks averaged, mean of replicates
Reading: higher = stronger binding
Quantity: E-score
Residues (chain): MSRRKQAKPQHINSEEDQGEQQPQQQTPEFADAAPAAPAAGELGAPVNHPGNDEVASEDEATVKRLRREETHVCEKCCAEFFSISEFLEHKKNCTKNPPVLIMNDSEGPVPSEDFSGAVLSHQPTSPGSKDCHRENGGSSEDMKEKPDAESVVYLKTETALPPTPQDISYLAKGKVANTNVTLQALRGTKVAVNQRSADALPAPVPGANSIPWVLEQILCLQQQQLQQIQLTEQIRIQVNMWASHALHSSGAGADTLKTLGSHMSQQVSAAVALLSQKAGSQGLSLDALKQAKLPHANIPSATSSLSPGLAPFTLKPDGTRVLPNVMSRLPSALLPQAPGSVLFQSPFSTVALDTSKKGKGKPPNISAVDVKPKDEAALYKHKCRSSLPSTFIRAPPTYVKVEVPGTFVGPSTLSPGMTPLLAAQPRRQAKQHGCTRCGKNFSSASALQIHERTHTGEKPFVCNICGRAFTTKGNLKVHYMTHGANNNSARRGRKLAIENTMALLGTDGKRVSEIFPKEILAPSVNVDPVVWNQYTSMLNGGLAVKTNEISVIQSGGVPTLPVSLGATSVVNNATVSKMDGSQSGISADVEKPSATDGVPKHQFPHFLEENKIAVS
Strand = CCGTTATC; result = 0.143
Strand = AATTCAGT; result = 0.059
Strand = CGAGGTTC; result = -0.05
Strand = TAGGAGGA; result = -0.0657
Strand = TTCCTAAA; result = 0.173
Strand = CGAGCTGA; result = -0.169
Strand = CGCTCTCA; result = -0.206
Strand = CGGGGATA; result = -0.195
Strand = AGGTTACC; result = -0.0561
Strand = ACCTAACC; result = -0.099
Strand = ATGGTTGG; result = -0.0326
Strand = AAACCTCA; result = -0.0243
Strand = ATGATTGA; result = 0.216
Strand = AAATGCTC; result = 0.0497
Strand = CGTTTTCA; result = -0.0165
Strand = AGTAAGAA; result = 0.0983
Strand = AAGCTAGA; result = 0.121
Strand = AAAGCCCT; result = -0.0499
Strand = CACGGCGA; result = -0.232
Strand = ACACGAAC; result = -0.0655
Strand = AAGAGAGC; result = -0.174

Block 3
Target: Histone acetyltransferase KAT6A, winged helix 2, GST fusion (KAT6A, Homo sapiens, UniProt Q92794, residues 85-181)
Technique: protein binding microarray
Molecule type: double-stranded DNA, one strand shown
Matrix: in vitro
Concentration: not given
Setting: 8-mer, flanks averaged, mean of 2 arrays, mostly near background
Baseline: not given
Reading: higher = stronger binding
Quantity: E-score
Residues (chain): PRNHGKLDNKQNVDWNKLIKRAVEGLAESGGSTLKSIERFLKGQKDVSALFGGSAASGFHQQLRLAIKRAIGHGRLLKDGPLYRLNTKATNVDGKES
Strand = ACACTGAG; result = -0.0196
Strand = AAGACAGC; result = 0.025
Strand = ACCGTGAC; result = -0.161
Strand = AACTGAAG; result = 0.0295
Strand = CACTAGAA; result = -0.072
Strand = ACCGAAAG; result = 0.025
Strand = ATTATCGA; result = -0.129
Strand = CTGGGGAC; result = -0.0737
Strand = TCTCATCA; result = -0.0588
Strand = GACTTCCC; result = -0.0352
Strand = CGCTCGAA; result = -0.00934
Strand = GTTTATCA; result = 0.18
Strand = ATTCACCG; result = -0.0821
Strand = ACGCCAGA; result = 0.0902
Strand = ACACTCTC; result = -0.0886
Strand = CTAAGAGC; result = -0.0253
Strand = ACGAAAAG; result = -0.0281
Strand = CTCACTCC; result = 0.0961
Strand = ATCTGAAT; result = -0.0147
Strand = ACGATAGC; result = -0.146
Strand = GAACCCGA; result = 0.0859
Strand = GCATTTCA; result = 0.0325
Strand = GATCTGGC; result = 0.166
Strand = ATTCCCAC; result = 0.0142
Strand = TGGTGGAA; result = -0.0465

Block 4
Target: Interferon regulatory factor 5, full length, phosphomimetic (IRF5, Homo sapiens, UniProt Q13568-2, residues 1-514, K96S/S451D/S453D/S456D/S462D)
Technique: protein-binding microarray
Molecule type: double-stranded DNA, one strand shown
Matrix: in vitro
Concentration: 250 nM
Setting: 60-bp whole probe
With: salmon DNA 0.4 mg/ml
Baseline: random background probes
Reading: higher = stronger binding
Quantity: log fluorescence
Constant ends, left off below: GCCTAGCAC … GTCTTGATTCGCTTGACGCTGCTG
Strand = GACGGTCTGGACACTGGGGACGTGCTA; result = -0.59 z-score
Strand = TTAGGAATGGGTATCGGTTAGTGCTAG; result = 4.7 z-score
Strand = GACTGTATCGGGTTTCGGGACGTGCTA; result = 4.35 z-score
Strand = GACGAACTGAGACTGGCGACGTGCTAG; result = -0.552 z-score
Strand = GACGGTATCGACTATCGGGAAGTGCTA; result = 4.5 z-score
Strand = TCCGTATGGATGGCCAATTGGTGCTAG; result = -0.64 z-score
Strand = TTTAAATTCTAATTAGAATTGTGCTAG; result = 0.514 z-score
Strand = TTAGGTTTCGGACTGGGGTAGTGCTAG; result = 5.13 z-score
Strand = TTCGGTCTCGGACTGGGTTAGTGCTAG; result = 0.494 z-score
Strand = TCAGTTACCCACCTCAGACTGTGCTAG; result = -0.0146 z-score
Strand = TTCTAAACCATTTTGGTTTTGTGCTAG; result = 0.748 z-score
Strand = GACGCTCTCCTTATCCTGACGTGCTAG; result = -0.203 z-score
Strand = GACGGTATCTACTATCGGGACGTGCTA; result = 2.33 z-score
Strand = TCAAGTTTGTATATATTACTGTGCTAG; result = 0.522 z-score
Strand = TCATGTTGCAAATATTGCACTGTGCTA; result = 0.0088 z-score
Strand = TTAGGTATCCTCCTGCTTTAGTGCTAG; result = -0.355 z-score
Strand = TACGGTCTCGGTCTCGGGACGTGCTAG; result = 0.243 z-score
Strand = TCAGGTATCGGTATCGGTTAGTGCTAG; result = 8.94 z-score

Block 5
Target: RNA binding protein fox-1 homolog 2, RRM domain, GST-SBP tag (RBFOX2, Homo sapiens, UniProt O43251-10, residues 100-194)
Technique: RNA Bind-n-Seq
Molecule type: RNA
Matrix: in vitro
Concentration: 365 nM
Setting: natural RNA segment, single round, ends assumed
Baseline: no-protein control
Reading: higher = stronger binding
Quantity: RBNS enrichment (R)
Target sequence (chain): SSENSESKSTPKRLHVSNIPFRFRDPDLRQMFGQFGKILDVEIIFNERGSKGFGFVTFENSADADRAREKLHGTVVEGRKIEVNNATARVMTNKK
Strand = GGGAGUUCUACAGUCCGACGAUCGGGGCGUGUGCCCCAAGGGGUCUGAUCCCCUCCUUAGUCUUAGCUCAUGGGGCGGCUCAUGAGGAGCUGGGGGCAGGGUAGAAUGGGACCGAGCAGGAACAGAGGCUGCAUGGAAUUCUCGGGUGCCAA; result = 1.85
Strand = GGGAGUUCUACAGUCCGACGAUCAUGGCACUGGACUGCCUCUAAGGACUGCUAAAAAGAAUAUUUUUUUGUGGUGUCAGAACUGGAAAAAGCACUUUCCCUUCGGGCAUUUCUGGAAAUGAUUAUUAAUCCACUGGAAUUCUCGGGUGCCAA; result = 0.47
Strand = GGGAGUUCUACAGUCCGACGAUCGCGUGGCCCCAGGAGUUUUGUCCUCUGCAGUUUUUAAUGCAAGUUCACUGCCACUUUGACAAAAGCCCAAUUAGAAGCCAGUCUCUAGUUCCUUAAACAAAACAGACAGAUGGAAUUCUCGGGUGCCAA; result = 0.542
Strand = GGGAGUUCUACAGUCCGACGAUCGCUGUUUGAAUUUUUCUUUUCCUGUGCCAGAUAUAGAAUGCAGUCAACCCUUUUUCAGUAACUUAUGUUCACCAGUCUGUGCUUUUCUUCUCCCAGAAGGCUUUUCUUAGUGGAAUUCUCGGGUGCCAA; result = 1.36
Strand = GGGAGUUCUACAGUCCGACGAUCCUUCCCCUUCCAACUAUGUCCAGAUGUGCAGGCUCCUCCUCUCUGGACUUUCUCCAAAGGCACUGACCCUCGGCCUCUACUUUGUCCCCUCACCUCCACCCCCUCCUGUCUGGAAUUCUCGGGUGCCAA; result = 0.89
Strand = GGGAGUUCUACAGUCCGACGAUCCUGCUUGAUGAAGCAAGGAAGAUAUACAUGAAAAUUUUAAAAAUACAUAUCGCUGACUUCAUGGAAUGGACAUCCUGUAUAAGCACUGAAAAACAACAACACAAUAACACUGGAAUUCUCGGGUGCCAA; result = 0.975
Strand = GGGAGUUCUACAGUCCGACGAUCCAUAUUUUUUUCCUUACAUAAACAUCAGCUUAGGCAGUAUAAAAAAUAGGACUUGUUUUUUGUUUUUGUUUUGUUGCACUGAAGUAUGACAAAUAGUGUUAUUGGAAGGGUGGAAUUCUCGGGUGCCAA; result = 0.412
Strand = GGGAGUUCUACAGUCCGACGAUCGAAUAUGUGAGGACCUGGACCGCUGGCUGCCUCAGCUGUACCUGGUUUUAAAUGCAGCUUUCUGUAGAGAUUCUACCUGCAGUCUGUUCUCUCUUGGGGUUCCACACCCAUGGAAUUCUCGGGUGCCAA; result = 0.567
Strand = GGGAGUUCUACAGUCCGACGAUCCCUCUCCCAACUAUAAAACUAGGUGCUGCAGCCCCUGGGACCAGGCACCCCCAGAAUGACCUGGCCGCAGUGAGGCGGAUUGAGAAGGAGCUCCCAGGAGGGGCUUCUGGUGGAAUUCUCGGGUGCCAA; result = 0.554
Strand = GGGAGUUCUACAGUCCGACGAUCAUAAAAGAAUAUCAUCUUAAAAAACUGUUCUGGCAACUAUCUGCUACCAGAAGGUUAGAUUGAGAAAGCAGAUCCAAUAUAUGCAAGACAUUUCUUCAAACUCCAAACUAUGGAAUUCUCGGGUGCCAA; result = 0.27
Strand = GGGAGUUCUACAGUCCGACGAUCCACUCUCACUCCCUCCAGGAACAAAGAGCAGCUUUUGAGCCCGGACUUGUUGCUGGUUUAAAGGUUAUUGUGGGAAACUGAACUAAAGGAGUUAGCAUCUUUAUUUUUGUUGGAAUUCUCGGGUGCCAA; result = 0.313
Strand = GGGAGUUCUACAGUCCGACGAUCAGCCCUUGAAGUCACCCGGCCCCCAUGCAAGGUGCCCACAUGUGUCCAUCCCAGCGGCUGGUGCAGGGCCUCCAUUCCUGGAGCCCGAGGCACCAGUGUCCUCCCCUCAAUGGAAUUCUCGGGUGCCAA; result = 0.253

Excerpt of the above (block 2):
Strand = AAACCTCA; result = -0.0243
Strand = ATGATTGA; result = 0.216
Strand = AAATGCTC; result = 0.0497
Strand = CGTTTTCA; result = -0.0165
Strand = AGTAAGAA; result = 0.0983
Strand = AAGCTAGA; result = 0.121
Strand = AAAGCCCT; result = -0.0499
